Assay results gathered from unrelated publications.
Lines come from different studies, so protocols differ. Values joined by “and” are separate records of one study, mostly repeats; a detail may differ. Numbers after ± are the reported error.

SMILES	cell line	test	system	setting	how to read	endpoint	value
O=c1ccc2ccccc2o1	HepG2	refers to: cell count	–	24 h, inflammation and pH panel	–	point of departure	789 µM
O=C(O)C(F)(F)C(F)(F)C(F)(F)C(F)(F)C(F)(F)C(F)(F)C(F)(F)C(F)(F)C(F)(F)F	hTERT-RPTEC-OAT1	–	–	concentration not given, Transwell, apical-to-basolateral addition	–	LDH release	15.1 mU/mL and 17.7 mU/mL and 15.5 mU/mL and 15.9 mU/mL
CN(N=O)[C@H]1CC[C@@H](c2ccc(Cl)c(Cl)c2)c2ccccc21	TK6 expressing CYP2B6	–	–	0.02 µM, 4 h, without S9	baseline: vehicle	relative survival	52.2%
O=C(Nc1ccc([N+](=O)[O-])cc1Cl)c1cc(Cl)ccc1O	MRC-5, mock-infected	nuclei count	–	96 h	–	LD50	1840 nM
CC[C@H](C)[C@H](NC(=O)[C@H](Cc1ccc(O)cc1)NC(=O)[C@H](CCCCN)NC(=O)[C@H](CCC(N)=O)NC(=O)[C@@H](NC(=O)[C@H](Cc1c[nH]c2ccccc12)NC(=O)[C@H](CCCCN)NC(=O)[C@H](CCCCN)NC(=O)[C@H](CCCNC(=N)N)NC(=O)[C@@H]1CCCN1C(=O)[C@H](Cc1c[nH]cn1)NC(=O)[C@@H](NC(=O)[C@H](CS)NC(=O)[C@@H](NC(=O)[C@H](CCCCN)NC(=O)[C@H](CCCCN)NC(=O)CNC(=O)[C@H](CCCNC(=N)N)NC(=O)[C@H](CCCCN)NC(=O)[C@@H](NC(=O)[C@@H](NC(=O)[C@H](Cc1ccccc1)NC(=O)[C@@H](NC(=O)[C@@H](NC(=O)[C@H](C)NC(=O)[C@@H](N)CCCNC(=N)N)C(C)C)[C@@H](C)CC)[C@@H](C)O)[C@@H](C)O)C(C)C)[C@@H](C)O)C(C)C)C(=O)N[C@@H](CO)C(=O)N[C@@H](CC(C)C)C(=O)N[C@@H](CC(C)C)C(=O)N[C@@H](CCCCN)C(=O)N[C@H](C(=O)N1CCC[C@H]1C(=O)N[C@@H](CCCCN)C(=O)N[C@@H](CCC(N)=O)C(=O)N[C@@H](CC(C)C)C(=O)O)[C@@H](C)O	HaCaT	cell viability, MTT	–	24 h	–	CC50	72.5 µM
CC(=O)OC[C@H]1O[C@@H](Oc2cc(O)cc3cc4oc(C)cc(=O)c4c(O)c23)[C@H](O)[C@@H](O)[C@@H]1O	HepaRG co-cultured with HK-2	MTT	–	133.33 µM, 48 h	baseline: untreated control	cell viability	66.9 ± 19.8%
CC[C@H](C)[C@H](N)C(=O)N[C@@H](CCCNC(=N)N)C(=O)N[C@H](C(=O)N[C@@H](Cc1c[nH]c2ccccc12)C(=O)N[C@@H](CCCCN)C(=O)N[C@@H](CCCCN)C(=O)N[C@@H](Cc1ccccc1)C(=O)N[C@H](C(=O)N[C@@H](CCCNC(=N)N)C(=O)N[C@@H](CCCCN)C(=O)N[C@@H](CCSC)C(=O)N[C@@H](CCCCN)C(=O)N[C@@H](C)C(=O)N[C@H](C(=O)N[C@@H](Cc1ccc(O)cc1)C(=O)N[C@@H](Cc1c[nH]cn1)C(N)=O)[C@@H](C)CC)C(C)C)C(C)C	rat erythrocytes	–	–	200 µM, 60 min, 37 °C	–	hemolysis	0.3 ± 0.1%
CC[C@H](C)[C@H](NC(=O)[C@H](C)NC(=O)[C@H](Cc1c[nH]cn1)NC(=O)CNC(=O)CNC(=O)CNC(=O)c1ccc2c(c1)C(=O)OC21c2ccc(O)cc2Oc2cc(O)ccc21)C(=O)N[C@@H](Cc1ccc(O)cc1)C(=O)N1CCC[C@H]1C(=O)N[C@@H](CCCNC(=N)N)C(=O)N[C@@H](Cc1c[nH]cn1)C(N)=O	hCMEC/D3 monolayers	BBB permeability, Transwell, refers to: CF-labelled compound	EGM-2 medium	concentration not given, 2 h, apical to basal	baseline: fluorescence added apically	transport ratio	8.5%
O=C(O)C(F)(F)C(F)(F)C(F)(F)F	hTERT-RPTEC-OAT1	–	–	concentration not given, Transwell, apical-to-basolateral addition	–	LDH release	12.3 mU/mL and 13.1 mU/mL and 10.1 mU/mL and 11.5 mU/mL
COC(=O)C=Cc1ccc(OC(C)=O)c(OC)c1	HaCaT	MTT	–	24 h, 10% FBS	–	subcytotoxic concentration	50 µM
C=C(C)[C@H]1Cc2c(ccc3c2O[C@@H]2COc4cc(OC)c(OC)cc4[C@@H]2C3=O)O1	THLE-2 transduced with Ad-CYP2C9	metabolism-induced cytotoxicity	–	48 h, 3D Matrigel spots	–	IC50	0.3 ± 0.1 µM
C/C1=C/C(=O)O[C@@H]2C[C@@H](CC[C@H](C)/C=C\C=C\CC1)O[C@@](OCCc1ccccc1)([C@@H]1CSC(=O)N1)C2	MCF7	MTT	–	–	–	lowest cytotoxic concentration	> 1 µM
C=C(C)C12OC3(c4ccccc4)OC1[C@@H]1[C@@H]4O[C@]4(CO)[C@@H](O)[C@]4(O)C(=O)C(C)=C[C@H]4C1(O3)[C@H](C)[C@H]2OC(=O)/C=C/C=C/C=C/CCC (some centres unmarked)	MT-4	cell viability	–	–	–	IC50	8.97 ± 1.21 µM
C[C@@H](O)[C@H](NC(=O)CNC(=O)CNC(=O)CNC(=O)c1ccc2c(c1)C(=O)OC21c2ccc(O)cc2Oc2cc(O)ccc21)C(=O)N[C@@H](Cc1ccccc1)C(=O)N[C@@H](Cc1ccccc1)C(=O)N[C@@H](Cc1ccc(O)cc1)C(=O)NCC(=O)NCC(=O)N[C@@H](CO)C(=O)N[C@@H](CCCNC(=N)N)C(=O)NCC(=O)N[C@@H](CCCCN)C(=O)N[C@@H](CCCNC(=N)N)C(=O)N[C@@H](CC(N)=O)C(=O)N[C@@H](CC(N)=O)C(=O)N[C@@H](Cc1ccccc1)C(=O)N[C@@H](CCCCN)C(=O)N[C@H](C(=O)N[C@@H](CCC(=O)O)C(=O)N[C@@H](CCC(=O)O)C(=O)N[C@@H](Cc1ccc(O)cc1)C(N)=O)[C@@H](C)O	hCMEC/D3 monolayers	BBB permeability, Transwell, refers to: CF-labelled compound	EGM-2 medium	concentration not given, 3 h, apical to basal	baseline: fluorescence added apically	transport ratio	15.3%
CC[C@H](C)[C@H](NC(=O)[C@H](CCCCN)NC(=O)[C@H](CCC(N)=O)NC(=O)[C@@H](NC(=O)[C@@H](NC(=O)[C@H](CCCCN)NC(=O)[C@H](CCCNC(=N)N)NC(=O)[C@H](Cc1ccccc1)NC(=O)CN)[C@@H](C)CC)C(C)C)C(=O)N[C@@H](CCCNC(=N)N)C(=O)N[C@@H](CC(=O)O)C(=O)N[C@@H](Cc1ccccc1)C(=O)N[C@@H](CC(C)C)C(=O)N[C@@H](CCCNC(=N)N)C(=O)N[C@@H](CC(N)=O)C(=O)N[C@@H](CC(C)C)C(=O)N[C@H](C(N)=O)C(C)C	HEK293	cell viability, MTS	–	serum-free	–	LC50	42 µM
Cc1cc2c(c(O)c1O)C(=O)c1c(O)cc(O)cc1C2=O	HK-2 co-cultured with HepaRG	MTT	–	66.67 µM, 24 h	baseline: untreated control	cell viability	107 ± 13.2%
CC1=C(O)C(=O)C=C2C1=CC=C1[C@@]2(C)CC[C@@]2(C)[C@@H]3C[C@](C)(C(=O)O)CC[C@]3(C)CC[C@]12C	COS-7	–	–	10 µM, 24 h, 0.1% DMSO, unit not given	baseline: vehicle control	necrotic cells	2.14 ± 1.51
O=c1[nH]c(=O)n([C@H]2C[C@H](O)[C@@H](CO)O2)cc1/C=C/Br	HEL	cell morphology	–	–	–	minimal cytotoxic concentration	> 250 µM
COc1ccc2c(c1OC)C(=O)c1c(cc(C)c(O)c1OC)C2=O	HepaRG co-cultured with HK-2	MTT	–	33.33 µM, 48 h	baseline: untreated control	cell viability	85.7 ± 5.06%
Oc1ccc(C(c2ccc(O)cc2)(C(F)(F)F)C(F)(F)F)cc1	HepG2 spheroids, dissociated	annexin V-FITC/PI flow cytometry	–	1 µM, 24 h	–	early apoptotic cells	17.2 ± 7.22%
COP(=O)(OC)OC=C(Cl)Cl	MCF7 AREc32 cells	cell viability, IncuCyte imaging	–	24 h, freely dissolved concentration	–	IC10	3.82 µM
CC[C@H](C)[C@H](NC(=O)[C@H](CCCNC(=N)N)NC(=O)[C@@H]1CCCN1C(=O)[C@H](CCCNC(=N)N)NC(=O)[C@@H](N)CCCNC(=N)N)C(=O)N[C@@H](Cc1c[nH]cn1)C(=O)N[C@@H](Cc1ccccc1)C(=O)N[C@@H](CCCNC(=N)N)C(=O)N[C@@H](Cc1ccccc1)C(=O)N1CCC[C@H]1C(=O)N[C@@H](CC(N)=O)C(=O)N[C@@H](CCCNC(=N)N)C(=O)N1CCC[C@H]1C(=O)N[C@@H](Cc1ccccc1)C(=O)N[C@H](C(=O)N1CCC[C@H]1C(=O)N[C@@H](CO)C(=O)N[C@@H](CCCNC(=N)N)C(=O)N[C@@H](CS)C(=O)N[C@@H](CC(N)=O)C(=O)N[C@@H](Cc1c[nH]cn1)C(=O)N[C@@H](CCCNC(=N)N)C(=O)N[C@@H](Cc1ccccc1)C(=O)N1CCC[C@H]1C(=O)N[C@@H](Cc1ccccc1)C(=O)N[C@@H](CCC(N)=O)C(=O)N1CCC[C@H]1C(=O)N[C@@H](Cc1ccccc1)C(=O)N[C@@H](Cc1ccc(O)cc1)C(=O)N[C@@H](Cc1c[nH]c2ccccc12)C(=O)N1CCC[C@H]1C(=O)N[C@@H](Cc1c[nH]cn1)C(=O)N[C@@H](CCCNC(=N)N)C(=O)N[C@@H](Cc1ccc(O)cc1)C(=O)N[C@@H](CC(C)C)C(=O)N[C@H](C(=O)N[C@@H](Cc1ccc(O)cc1)C(=O)N[C@@H](CCCNC(=N)N)C(=O)N[C@@H](Cc1ccc(O)cc1)C(=O)N[C@@H](Cc1ccccc1)C(=O)N1CCC[C@H]1C(=O)N[C@@H](CCCNC(=N)N)C(=O)N[C@@H](CCCNC(=N)N)C(=O)N[C@@H](CCCNC(=N)N)C(=O)N[C@@H](CC(C)C)C(=O)N[C@@H](CCC(N)=O)C(=O)N[C@@H](CCCNC(=N)N)C(=O)O)[C@@H](C)O)C(C)C	HaCaT	cell viability, MTT	–	–	–	CC50	50.2 µM
O=S(=O)(O)C(F)(F)C(F)(F)C(F)(F)C(F)(F)C(F)(F)C(F)(F)C(F)(F)C(F)(F)F	hTERT-RPTEC-OAT1	–	–	concentration not given, 96-well plate	–	LDH release	5.52 mU/mL and 5.1 mU/mL and 5.45 mU/mL and 3.02 mU/mL
Cn1cc2cc(C(F)(F)c3nnc4ccc(-c5cnn(C6CC6)c5)nn34)c(F)cc2n1	MKN-45	CCK-8	–	0.05 µM, 72 h	baseline: untreated	viability	6.8% and 6.44% and 5.85%
N#C[C@@]1(n2ccc(N)nc2=O)O[C@H](CO)[C@@H](O)[C@H]1O	CHO	–	–	16 µM, with S9	–	micronucleated cells	0.34%
Oc1ccc(C2(c3ccc(O)cc3)c3ccccc3-c3ccccc32)cc1	HepG2 spheroids, dissociated	annexin V-FITC/PI flow cytometry	–	10 µM, 24 h	–	early apoptotic cells	14.2 ± 3.97%
O=C1c2ccccc2C(=O)c2ccccc21	HK-2 co-cultured with HepaRG	MTT	–	266.67 µM, 24 h	baseline: untreated control	viability	129 ± 26.4%
CC[C@H](C)[C@H](NC(=O)CN)C(=O)N[C@@H](C)C(=O)N[C@@H](CCCCN)C(=O)N[C@@H](Cc1ccccc1)C(=O)N[C@H](C(=O)N[C@@H](CCCCN)C(=O)N[C@@H](CCCCN)C(=O)N[C@H](C(=O)N[C@@H](C)C(=O)N[C@@H](CCCCN)C(=O)N[C@@H](C)C(=O)N[C@@H](CC(C)C)C(=O)N[C@@H](CCCNC(=N)N)C(N)=O)[C@@H](C)CC)[C@@H](C)CC	sheep red blood cells	–	–	256 µM, 1 h, 37 °C	baseline: Triton X-100	hemolysis	20%
CC(C)(c1ccc(O)cc1)c1ccc(O)cc1	HepG2 spheroids, dissociated	annexin V-FITC/PI flow cytometry	–	1 µM, 24 h	–	early apoptotic cells	0.85 ± 0.44%
